Measured values pooled from the literature.
Parts stem from different laboratories: compare values within a part only.

Series 1
Target: RNA binding protein fox-1 homolog 2, RRM domain, GST-SBP tag (RBFOX2, Homo sapiens, UniProt O43251-10, residues 100-194)
Technique: RNA Bind-n-Seq
Form: RNA
Sample: in vitro
Tested at: 365 nM
Notes: natural RNA segment, single round, ends assumed
Baseline: no-protein control
Reading: higher = stronger binding
Construct (chain): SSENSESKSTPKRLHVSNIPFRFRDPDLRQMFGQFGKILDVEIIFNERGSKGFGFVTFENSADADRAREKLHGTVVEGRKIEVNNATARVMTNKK
| Strand | RBNS enrichment (R) |
| --- | --- |
| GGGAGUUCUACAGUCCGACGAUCAAGGUAAACGCAGAUUGUAUCUUUUUUAAUGGUACGGCAUAAAAAGUAACCCUCAAGUGAAGUGUCUCUAUACUGUUUUAUAGAGUACUUUAACAUGAAUAGAUACCUUGUGGAAUUCUCGGGUGCCAA | 0.35 |
| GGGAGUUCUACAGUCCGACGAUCUGUGACUUCCUGGGCAGCCAUUGAAUUCAUUUUCCAUGAGAAGAUGACAGAGUUAGCCUGUGGCUAUAGGAGAUCAUGUCAUCCAGACCUUUUUGCCCAUCACAUUAACUUGGAAUUCUCGGGUGCCAA | 0.22 |
| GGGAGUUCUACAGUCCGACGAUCUCAGACCAGUUAGCACAGUAUUCUCUCAUCUGUGUCACUUUGUAAAACUAACUGUACUCUGUAUUUCUUAUUUGUACAUAUCAAUGUGAGAAAUCUCCCUUUUUUAUGUUUGGAAUUCUCGGGUGCCAA | 0.455 |
| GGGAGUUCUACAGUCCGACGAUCCUCCUGGGGCCAUUUCCUAAUGGUACUGUAAGCCAAGCAGCUUUGCUUCUGCCUCUGUUUCCAAGCCCACCCUUUUCCCCUGAGCUCAGGGUUAGGGAUGGGCGCUUUCCUGGAAUUCUCGGGUGCCAA | 0.24 |
| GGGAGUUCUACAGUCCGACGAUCGUCCAAGGAAGGGGCCUGGUGGUGCUCCACUUGCAGUUCUUUAAAGAAUGCUGCUUUUUAUUCUCCUAACCCUUUCAAGUGGGUGCAGACUUCUCGUUAGCAGCUGGAAGUGGAAUUCUCGGGUGCCAA | 0.598 |
| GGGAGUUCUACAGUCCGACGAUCCGGUCCAAGGACUUUUACUUUGCGCUUCGUAACUACUGCCAGCUUCUCCUCUCCUGGCCCUGCUCCCAGAUUGCAGCCUCCCUGCAGUGUCUGCCCUUGCCACCUCCCAGUGGAAUUCUCGGGUGCCAA | 0.443 |
| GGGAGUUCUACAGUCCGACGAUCGAGACUGGCCCUGCCCUGCUUCUCAGUCUGUUCCACAUCCUAAGGUCACACCCUGUCAGGACUUCUUCGUACUCACCUGUCCCUUCCUGCAGCUUCCUUGACAGACAGGUUGGAAUUCUCGGGUGCCAA | 0.401 |
| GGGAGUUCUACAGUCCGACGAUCGCUGGAGCAAGAGUCCACCUUUAGCUGUGCCUGCCUUUACUUCUGUGCCUCACAAGUGCCUUUUGAAAAGCCUUAAAUUCUGCAUUCCCAUAAAAUAAAGUUGAUGCCACUGGAAUUCUCGGGUGCCAA | 0.532 |
| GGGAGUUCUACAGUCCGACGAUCACAGAGGAAGCUCAGGCACAGAGGACGAGGAGCAAGCUGGCGCCGACAUGGCGAAGGCAAGGUCUUCCCCCAGAGGCACAUUCCUCUCCAUCUUUCCACCGCACACCUGGUGGAAUUCUCGGGUGCCAA | 0.382 |
| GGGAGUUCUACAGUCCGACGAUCUAGAAACACAUUAACUGGUUUACUCAUUGAGAAUCCAGCAUAUUUAAGAGGUGACCCUGUGUUUUUUGUGAUAUUGAGGCAUUCAUACAGAGCUGCAGUUAGACGGGGUUUGGAAUUCUCGGGUGCCAA | 0.562 |
| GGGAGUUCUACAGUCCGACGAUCAAAGACCUAGAAUCCAGUCAUAGUUUCUCACUGAAUAGUUGGUAGGUUUCAGAAUAAACUCAGAGAAAACUUCAGGCUAAGAGACAGUGCUGCGUAGCUGUGUUGUUUCCUGGAAUUCUCGGGUGCCAA | 0.681 |
| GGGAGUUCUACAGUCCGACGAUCGUAUGAUACAUGUAAAAUUAAAAAAACUAUUAGAACUGUACCAUAAUUAUGUUGAAGGUAGAAGUGAUCUUCAAAGAGAUGGCCAUUAACUUAGCAGUGGGACCUCACUUUGGAAUUCUCGGGUGCCAA | 0.415 |

Series 2
Target: Cln2 (Saccharomyces cerevisiae)
Observed: peptide binding
Technique: competitive growth sequencing
Form: peptide
Organism: Saccharomyces cerevisiae
Strain: unfused Cln2 strain
Notes: peptide tiling library
Reading: direction not given
| Sequence | enrichment score |
| --- | --- |
| LKGRRLVFDN | -0.298 |
| KDDDKAWEYEERDRRS | 0.0711 |
| GQLVIPLDELTLDTSF | 1.37 |
| AGSAKRRLFGEDPPKE | -0.577 |
| MNQELLSVGSKRRRTG | 1.06 |
| KPITLDTTDFQESFVT | 0.525 |
| ALLRRLQDVANDRGSH | -0.742 |
| RDLFDCDFGDLTPLDF | 1.34 |
| QDYERRLLRQIVIQNE | -0.408 |
| TSPGPVLLHPSPSTTQ | 0.355 |
| KRRLDLETDHQY | -0.209 |
| SDSTVTKLDFDLEP | 0.78 |
| ISRLFPPRTPGWHQLQ | -2.19 |

Series 3
Target: Interferon regulatory factor 7, full length, phosphomimetic (IRF7, Homo sapiens, UniProt Q92985, residues 1-503, S101K/S471D/S472D/S475D/S476D/S477D/S483D/S484D/S487D)
Technique: protein-binding microarray
Form: double-stranded DNA, one strand shown
Sample: in vitro
Tested at: 250 nM
Notes: 60-bp whole probe
With: salmon DNA 0.4 mg/ml
Baseline: random background probes
Reading: higher = stronger binding
Shared flanks, not repeated: GCCTAGCAC … GTCTTGATTCGCTTGACGCTGCTG
Residues (chain): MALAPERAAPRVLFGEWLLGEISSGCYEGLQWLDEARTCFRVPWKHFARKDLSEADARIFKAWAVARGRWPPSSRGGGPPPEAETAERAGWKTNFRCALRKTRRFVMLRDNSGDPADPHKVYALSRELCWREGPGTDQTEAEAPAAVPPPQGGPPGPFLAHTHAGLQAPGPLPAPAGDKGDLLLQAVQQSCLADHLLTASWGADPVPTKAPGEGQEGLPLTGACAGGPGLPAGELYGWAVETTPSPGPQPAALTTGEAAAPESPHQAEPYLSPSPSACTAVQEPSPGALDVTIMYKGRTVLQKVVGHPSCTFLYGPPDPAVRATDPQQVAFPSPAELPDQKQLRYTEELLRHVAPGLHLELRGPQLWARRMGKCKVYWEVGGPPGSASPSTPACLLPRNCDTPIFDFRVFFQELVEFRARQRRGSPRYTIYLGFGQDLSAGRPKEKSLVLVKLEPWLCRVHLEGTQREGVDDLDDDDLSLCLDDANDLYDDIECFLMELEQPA
| Strand | log fluorescence |
| --- | --- |
| CTTTCCTTTGCTTTCTCCCAGTGCTAG | 2.5 z-score |
| GACGGTATTGACTATCGGGACGTGCTA | -0.16 z-score |
| AAAATTTTAACCCTTATTCTGTGCTAG | 0.141 z-score |
| TAAGGTATCGGTATCGGTTAGTGCTAG | 2.96 z-score |
| TTAGATCTCAGTACCGATTAGTGCTAG | 0.293 z-score |
| AGAATTTTCATTAACTGTTAGTGCTAG | 0.00524 z-score |
| GACGGTATCGATACTGGGGACGTGCTA | 0.519 z-score |
| TCAACAGTTTTATTTTAGACTGTGCTA | 0.638 z-score |
| TTAGTTTTCCTTTCCCTTTAGTGCTAG | 4.62 z-score |
| GACGATATCAGGTTCGAGACGTGCTAG | 0.363 z-score |
| TTAGGACTGGACTAACGGTTAGTGCTA | -0.42 z-score |
| TTTGATTTCAGTTCCGATTAGTGCTAG | 1.64 z-score |
| TCACCTTTCTCTCTGTGACTGTGCTAG | 1.12 z-score |
| GACGGTATCGACACTGGGGCCGTGCTA | -0.44 z-score |
| TCAAAGATTCCTCTCACACTGTGCTAG | 0.434 z-score |
| GATGAACTGAGTATCGAGACGTGCTAG | -0.201 z-score |
| TTAGGTCCCGGACTGGGTTAGTGCTAG | 0.273 z-score |
| TCGAGTCTGCAACATGGGACTGTGCTA | 0.0781 z-score |

Series 4
Target: Ras GTPase-activating protein-binding protein 1, full length (G3BP1, Homo sapiens, UniProt Q13283)
Chain of UniProt Q13283 (whole entry, looked up): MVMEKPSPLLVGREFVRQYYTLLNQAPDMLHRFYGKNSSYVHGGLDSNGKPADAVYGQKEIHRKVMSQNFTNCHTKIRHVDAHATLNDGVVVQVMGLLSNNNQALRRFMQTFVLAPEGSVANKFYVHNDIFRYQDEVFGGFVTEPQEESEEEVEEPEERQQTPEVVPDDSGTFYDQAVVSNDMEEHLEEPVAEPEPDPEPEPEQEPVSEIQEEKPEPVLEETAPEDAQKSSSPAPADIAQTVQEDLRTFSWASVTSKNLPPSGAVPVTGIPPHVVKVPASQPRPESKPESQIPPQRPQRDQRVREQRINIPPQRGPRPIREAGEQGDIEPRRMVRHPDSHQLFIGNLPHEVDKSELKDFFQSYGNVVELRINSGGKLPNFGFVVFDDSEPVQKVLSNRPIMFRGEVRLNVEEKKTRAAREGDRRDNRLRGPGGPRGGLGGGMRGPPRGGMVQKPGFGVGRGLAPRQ
Technique: RNA Bind-n-Seq
Form: RNA
Sample: in vitro
Tested at: 200 nM
Notes: whole 134-nt RNA, ends assumed
With: 150 mM KCl
Baseline: input library
Reading: higher = stronger binding
| Strand | log2 enrichment |
| --- | --- |
| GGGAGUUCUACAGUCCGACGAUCGUCCUGUGCUACACAUCGUAUGUACCGAAUCGGGGUGGGGAAAAAAAGGGGUUUGGGGAAAGUAUUAUGUUACGCCGUUCGGAUCUGCACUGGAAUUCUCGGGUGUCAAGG | 0.322 |
| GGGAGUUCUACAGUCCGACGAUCGUCCUGUGCUACACAUCGUAUGUACCGAAUCGGGCCCCCGGCCCCCGGGGCCCCCGGGAAAGUAUUAUGUUACGCCGUUCGGAUCUGCACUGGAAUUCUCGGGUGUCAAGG | -1.03 |
| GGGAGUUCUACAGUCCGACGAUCCCUCAAGUCCUGUGCUACACAUCGUAUGUACCGAAUCGGUGGAAAAAGGAGGAAAGUAUUAUGUUACGCCGUUCGGAUCUGCACUUCCAGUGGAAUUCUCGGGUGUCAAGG | 0.0821 |
| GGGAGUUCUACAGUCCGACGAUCUUUGUGAGACAUGUGAAAGGAGGACAUGGUCACAGUCAUGGACAUGGACACGCUCACAGUCAUACACGUGGAAGUCAUGGACAUGGAAGAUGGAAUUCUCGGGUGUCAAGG | -2.36 |
| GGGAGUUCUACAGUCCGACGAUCUUCUUACAUGUGUAAUCUUCUUCUCCUAGGGCGGCAGAACUCAUGACAAGAACAAGCUCUGUGGUGACACUGGAAGUAGCAAAGCAGGGUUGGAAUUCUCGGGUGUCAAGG | 0.381 |
| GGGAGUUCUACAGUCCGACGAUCAGUCCUGUGCUACACAUCGUAUGUACCGAAUCGGGAGGGAAAAAAAGGGUUUUUGGGAAAGUAUUAUGUUACGCCGUUCGGAUCUGCACUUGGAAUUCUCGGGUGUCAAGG | -0.154 |
| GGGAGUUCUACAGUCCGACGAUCUCCUGUGCUACACAUCGUAUGUACCGAAUCAAAUUUUUAAACCCCCCCAAACCCCCAAAAAAGUAUUAUGUUACGCCGUUCGGAUCUGCAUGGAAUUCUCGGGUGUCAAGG | -0.0248 |
| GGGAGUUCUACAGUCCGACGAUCCUCAAGUCCUGUGCUACACAUCGUAUGUACCGAAUCGGGUGGGGUGGGUGGGGAAAGUAUUAUGUUACGCCGUUCGGAUCUGCACUUCCAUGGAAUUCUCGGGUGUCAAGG | 0.905 |
| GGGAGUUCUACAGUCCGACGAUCGCAGUAAGUAAAAACAAAUGGAAAUGCUUCGGAUAGUGGCAGGGGUGGGGGUUGCUAAGGAAAGGGUGGGAUGGGAGUGGGUAAAGAGUUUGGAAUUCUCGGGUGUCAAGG | 0.537 |
| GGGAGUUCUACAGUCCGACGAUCAAGUCCUGUGCUACACAUCGUAUGUACCGAAUCGGGAAAGGGGAAAGGGGAAAGGGAAAGUAUUAUGUUACGCCGUUCGGAUCUGCACUUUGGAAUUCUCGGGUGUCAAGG | 0.312 |
